Measurements from different studies.
Each numbered part is a random draw from the data of one study; scales do not carry over between parts. Positions count from the first letter of the parent shown.

Block 1
Target: CCNB1, cyclin fold, Cln2 fusion (human)
Method: yeast growth competition, sequencing
Matrix: yeast
Notes: weak parent motif
Relative to: not given
Reading: higher = stronger binding
Endpoint: normalised enrichment score
Starting sequence: CDC6 docking peptide (human); TLKGRRLVFDNQL
L13T: -0.354
N11D: 0.483
T1W: 1.11
T1G: 0.58
V8G: 0.91
K3P: 0.0493
K3I: 1.11
R5P: -0.00256
G4Y: -0.446

Block 2
Target: PABPC1L2, full length, GST fusion (mouse, UniProt A0ABA7IW68)
Method: RNAcompete
Molecule type: RNA
Matrix: in vitro
Tested at: 20 nM
Notes: 7-mer, probes averaged, single round
Relative to: mean of 7-mers
Reading: higher = stronger binding
Endpoint: 7-mer Z-score
Residues (chain): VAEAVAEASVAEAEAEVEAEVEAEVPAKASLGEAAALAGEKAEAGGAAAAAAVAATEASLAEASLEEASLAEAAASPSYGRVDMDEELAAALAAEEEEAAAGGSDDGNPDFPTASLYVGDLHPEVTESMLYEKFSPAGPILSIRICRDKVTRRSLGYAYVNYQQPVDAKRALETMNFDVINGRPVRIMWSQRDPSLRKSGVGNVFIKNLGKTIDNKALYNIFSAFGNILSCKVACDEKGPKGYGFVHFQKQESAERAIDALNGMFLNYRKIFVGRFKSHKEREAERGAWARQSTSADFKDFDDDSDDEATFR
UCUUCGU: -0.463
GUUGCCU: -0.367
GCGUGAA: -0.0319
UGUCCUA: -0.213
AUCAUGC: -0.126
CCCAAUG: -0.336
GGUCGUC: -0.434

Block 3
Target: Ras GTPase-activating protein-binding protein 1, RRM domain (G3BP1, Homo sapiens, UniProt Q13283)
Chain of UniProt Q13283 (whole entry, looked up): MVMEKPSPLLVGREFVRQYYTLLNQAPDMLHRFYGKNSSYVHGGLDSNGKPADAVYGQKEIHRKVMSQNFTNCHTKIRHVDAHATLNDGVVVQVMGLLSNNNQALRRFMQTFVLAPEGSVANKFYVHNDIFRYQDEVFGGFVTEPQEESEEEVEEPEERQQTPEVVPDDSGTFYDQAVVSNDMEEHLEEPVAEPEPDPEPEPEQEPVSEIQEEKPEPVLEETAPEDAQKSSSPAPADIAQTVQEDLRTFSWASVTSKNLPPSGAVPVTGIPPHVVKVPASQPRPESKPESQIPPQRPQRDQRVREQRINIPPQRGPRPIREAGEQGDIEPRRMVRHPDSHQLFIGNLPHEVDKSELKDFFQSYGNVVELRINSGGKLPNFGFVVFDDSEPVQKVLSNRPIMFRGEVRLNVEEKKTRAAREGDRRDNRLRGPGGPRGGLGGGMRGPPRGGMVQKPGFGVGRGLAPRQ
Method: RNA Bind-n-Seq
Molecule type: RNA
Matrix: in vitro
Tested at: 1 µM
Notes: whole 134-nt RNA, ends assumed
With: 150 mM KCl
Relative to: input library
Reading: higher = stronger binding
Endpoint: log2 enrichment
All sequences stand within: GGGAGUUCUACAGUCCGACGAUC … UGGAAUUCUCGGGUGUCAAGG
UCAAGUCCUGUGCUACACAUCGUAUGUACCGAAUCGGAAAAAGGAGGUUUUUGGAAAGUAUUAUGUUACGCCGUUCGGAUCUGCACUUCC: -0.143
CAAGUCCUGUGCUACACAUCGUAUGUACCGAAUCGGGUUUGGGUUUUUGGGUGGGAAAGUAUUAUGUUACGCCGUUCGGAUCUGCACUUC: 0.605
UCCUCCCUGGCUUCAGCCAGUCCCUGACGCUGAGCACUGGCUUCCGAGUCAUCAAGAAGAAGCUGUACAGCUCGGAACAGCUGCUCAUUG: -0.177
UGCAGCUGCUGGCCGCCUCCUAUGACCUGCACCGCUACUUCUACACGGGUGCCGAGAUCCUGGGCCUCAUCGACGAGAAGCACCGCGAGC: -0.27
GCAGGAAGUAAAAACAAAUGGAAAUGCUUCGGAUAGUGGCAGGGGUGGAAAUUGCUAAGGAAAGGGUGGGAUGGGAGUGGGUAAAGAGUU: 1.09
CUCAAGUCCUGUGCUACACAUCGUAUGUACCGAAUCGGUUUGGUGGAAAAAGGAAAGUAUUAUGUUACGCCGUUCGGAUCUGCACUUCCA: -0.235
UGGAUGGACACCAUUAUCGUCGUGUGGCACGGGUUGACCUAAGGAAGAAGACAGAGACUUUCUCCACAAGAAGGGUUAAGUCUGGGCUGU: -0.0729

Mixed results
PhoQ, residues 284 288 289 292 302 303 NLCILV — fold induction (PhoP, residues 12 14 15 18 19 MHTVL (Escherichia coli, UniProt P23836); Sort-seq, measured: YFP reporter; E. coli; PhoQ-PhoP variant library, with: 10 µM Mg2+; relative to: high Mg2+ state, higher = stronger signaling): 6.83

Some of these lines once more (block 1):
L13T: -0.354
N11D: 0.483
